{"data": "Literature values that unrelated publications cite", "note": "Protocols differ between the studies behind these lines. Numbers after ± are the reported error."}
{"Compound": "CC1=C(C)C(=O)OC(C(C)(O)C2(O)CCC3(O)C4CC5OC56CC=CC(=O)C6(C)C4CCC32C)C1 (stereo not drawn)", "tested on": "L5178Y", "assay": "cell growth", "endpoint": "IC50", "value": "620 nM"}
{"Compound": "COC[C@@H](NC(C)=O)C(=O)NCc1ccc(OCc2cccc(F)c2)cc1", "tested on": "CAD", "conditions": "8.5 µM, use-dependent", "endpoint": "sodium current reduction", "value": "40%"}
{"Compound": "CSC([S-])=NN=Cc1ccc(O)cc1[O-].[C-]#[O+].[Ru+2].c1ccc(P(c2ccccc2)c2ccccc2)cc1.c1ccc(P(c2ccccc2)c2ccccc2)cc1", "tested on": "MCF7", "conditions": "2 days", "endpoint": "apoptotic activity", "value": "33.1 µM"}
{"Compound": "C[C@H](NC(=O)[C@H](Cc1c[nH]cn1)NC(=O)[C@H](CO)NC(=O)[C@@H](N)CC(=O)O)C(=O)N[C@@H](CCCCN)C(=O)N[C@@H](CCCNC(=N)N)C(=O)N[C@@H](Cc1c[nH]cn1)C(=O)N[C@@H](Cc1c[nH]cn1)C(=O)NCC(=O)N[C@@H](Cc1ccc(O)cc1)C(=O)N[C@@H](CCCCN)C(=O)N[C@@H](CCCNC(=N)N)C(=O)N[C@@H](CCCCN)C(=O)N[C@@H](Cc1ccccc1)C(=O)N[C@@H](Cc1c[nH]cn1)C(=O)N[C@@H](CCC(=O)O)C(=O)N[C@@H](CCCCN)C(=O)N[C@@H](Cc1c[nH]cn1)C(=O)N[C@@H](Cc1c[nH]cn1)C(=O)N[C@@H](CO)C(=O)N[C@@H](Cc1c[nH]cn1)C(=O)N[C@@H](CCCNC(=N)N)C(=O)NCC(=O)N[C@@H](Cc1ccc(O)cc1)C(=O)O", "tested on": "human gingival fibroblasts", "assay": "IL8 production", "conditions": "3.3 µM, added: Porphyromonas gingivalis outer-membrane protein 10.0 µg/mL", "endpoint": "inhibition", "value": "47%"}
{"Compound": "CC1=C(CO)C(=O)OC(C(C)C2CC3OC34C3CC5OC56C(O)C=CC(=O)C6(C)C3CCC24C)C1 (stereo not drawn)", "tested on": "NCI-H460", "assay": "cell growth", "endpoint": "IC50", "value": "3100 nM"}
{"Compound": "CCCCCCCC(=O)NCC(=O)N[C@@H](C)C(=O)N[C@@H](CC(C)C)C(=O)N[C@](C)(CC)C(=O)N[C@@H](C)C(=O)N[C@H](C(=O)N[C@H](CO)CC(C)C)[C@@H](C)CC", "tested on": "HL-60", "assay": "cell growth, MTT", "endpoint": "IC50", "value": "4000 nM"}
{"Compound": "O=C(OCC[18F])C1C2CCC(CC1c1ccc(/C=C\\I)cc1)N2 (stereo not drawn)", "tested on": "SERT", "assay": "microPET", "test system": "anaesthetised, cerebellum", "endpoint": "time to peak uptake", "value": "45 min"}
{"Compound": "CC(C)c1c(O)c(O)c2c(c1O)C(=O)C(O)=C1C(C)(C)CCCC12C (stereo not drawn)", "tested on": "NCI-H460", "endpoint": "GI50", "value": "3000 ± 200 nM"}
{"Compound": "CC(C)=CCC/C(C)=C/C[P+](c1ccccc1)(c1ccccc1)c1ccccc1", "tested on": "HCT-116", "assay": "cell growth", "endpoint": "GI50", "value": "720 nM"}
{"Compound": "COc1ccc(S(=O)(=O)N(C)C)cc1N1CCN(C(=O)c2ccc(F)cc2C(F)(F)F)CC1", "tested on": "naive dopamine neurons", "endpoint": "survival-promoting concentration", "value": "0.1 to 1 µM"}
{"Compound": "C#CCN[C@@H]1C=C[C@]2(O[C@H]([C@@H](CC)C(=O)[C@@H](C)[C@@H](O)[C@H](C)[C@@H]3O[C@@H]([C@@H](CC)C(=O)O)CC[C@@H]3C)[C@@H](C)C[C@H]2C)O[C@@]12CC[C@@](C)([C@H]1CC[C@](O)(CC)[C@H](C)O1)O2", "tested on": "HMLER CD24low/CD44high", "how to read": "baseline: salinomycin", "endpoint": "relative potency", "value": "~10"}
{"Compound": "COc1ccccc1/C=C/[N+](=O)[O-]", "tested on": "MOLM-13", "conditions": "concentration not given", "endpoint": "cytotoxicity activity class", "value": "active"}
{"Compound": "CC(C)C[C@@H]1NC(=O)[C@H](C(C)C)NC(=O)[C@H](CO)NC(=O)CNC(=O)CNC(=O)[C@H](CCCNC(=N)N)NC(=O)[C@@H]2CCCN2C(=O)[C@@H](NC(=O)CC[C@H](NC(=O)c2ccc(N(C)Cc3cnc4nc(N)nc(N)c4n3)cc2)C(=O)O)C(C)(C)SSC[C@@H](C(=O)O)NC(=O)CNC(=O)[C@H]([C@@H](C)O)NC(=O)[C@H](C(C)C)NC1=O", "tested on": "KB", "how to read": "not toxic up to value", "endpoint": "cytotoxicity", "value": "> 10 µM"}
{"Compound": "CC1=C(C)C(=O)OC(C(C)(O)C2(O)CCC3(O)C4CC5OC56C(O)C=CC(=O)C6(C)C4CCC32C)C1 (stereo not drawn)", "tested on": "MCF7/BUS", "endpoint": "IC50", "value": "1100 nM"}
{"Compound": "C=CCc1cc(OC)c(OC)c(OC)c1OC", "tested on": "MCF7", "assay": "cell growth", "endpoint": "IC50", "value": "193000 nM"}
{"note": "Repeated from above:"}
{"Compound": "CC(C)C[C@@H]1NC(=O)[C@H](C(C)C)NC(=O)[C@H](CO)NC(=O)CNC(=O)CNC(=O)[C@H](CCCNC(=N)N)NC(=O)[C@@H]2CCCN2C(=O)[C@@H](NC(=O)CC[C@H](NC(=O)c2ccc(N(C)Cc3cnc4nc(N)nc(N)c4n3)cc2)C(=O)O)C(C)(C)SSC[C@@H](C(=O)O)NC(=O)CNC(=O)[C@H]([C@@H](C)O)NC(=O)[C@H](C(C)C)NC1=O", "tested on": "KB", "how to read": "not toxic up to value", "endpoint": "cytotoxicity", "value": "> 10 µM"}
{"Compound": "CC(C)c1c(O)c(O)c2c(c1O)C(=O)C(O)=C1C(C)(C)CCCC12C (stereo not drawn)", "tested on": "NCI-H460", "endpoint": "GI50", "value": "3000 ± 200 nM"}
